Experimental data of several laboratories.
Compare with care: the assays were run in different laboratories.
PIK3CA Q546K: Phosphatidylinositol 4,5-bisphosphate 3-kinase catalytic subunit alpha isoform (PIK3CA, Homo sapiens, UniProt P42336, Q546K)
PIK3CA M1043I: Phosphatidylinositol 4,5-bisphosphate 3-kinase catalytic subunit alpha isoform (PIK3CA, Homo sapiens, UniProt P42336, M1043I)
PIK3CA: Phosphatidylinositol 4,5-bisphosphate 3-kinase catalytic subunit alpha isoform (PIK3CA, Homo sapiens, UniProt P42336)

Structure (SMILES)	target	test	conditions	scale	remaining binding [%]
CCN1CCN(Cc2ccc(C(=O)Nc3ccc(C)c(NCc4cnc5[nH]ccc5c4OC)c3)cc2C(F)(F)F)CC1	PIK3CA Q546K	binding, competition with immobilised ligand	1 µM		99
Cc1cnc2nc1Nc1cccc(c1)COC/C=C/COCc1cc(ccc1OCCN1CCOCC1)N2	PIK3CA Q546K	binding	0.1 µM		79
CC(C)=CC1OC(C)(C)C2C=C3C(=O)C(Cl)=CC(O)C3C3C(O)C4OC4C(=O)C132 (centres unmarked)	PIK3CA M1043I	cell-free assay, competition with immobilised ligand	10 µM		70
CN1CCN(Cc2ccc(NC(=O)c3cccc(C#Cc4cnc(N)c5ncccc45)c3)cc2C(F)(F)F)CC1	PIK3CA	cell-free assay, competition with immobilised ligand	50 nM		84
C=CC(=O)N1CCCC(n2c(=O)c3ncccc3n(Cc3ccc(Oc4ccccc4)cc3)c2=O)C1 (centres unmarked)	PIK3CA (Homo sapiens, UniProt P42336, E542K)	cell-free assay, competition with immobilised ligand	1 µM		89
CCN1CCN(Cc2ccc(NC(=O)c3ccc(C)c(NC(=O)c4cncc(-c5cccs5)c4)c3)cc2C(F)(F)F)CC1	PIK3CA	binding, competition with immobilised ligand	1 µM		21
Cc1ccc(-c2c(/C=C(\C#N)C(=O)NC(C)C)n(CCCO)c3ncnc(N)c23)cc1	PIK3CA	cell-free assay, competition with immobilised ligand	1 µM		94
CC(=O)c1cnc(N)nc1N1CC[C@H]1c1nn2ccc(Cl)c2c(=O)n1-c1ccccc1	PIK3CA M1043I	binding, competition with immobilised ligand	10 µM		71
C=CC(=O)N1CCc2ccc(-n3c(=O)ccc4cnc5ccc(-c6cnn(C)c6)cc5c43)cc21	PIK3CA M1043I	KINOMEscan	1 µM	reference: DMSO control	100
COc1ccc(NC(=O)Nc2ccc3c(c2)C(=O)N(C(C)CO)CC(C)C(CN(C)Cc2ccc4c(c2)OCO4)O3)cc1 (centres unmarked)	PIK3CA	binding, competition with immobilised ligand	10 µM		74
COc1c(Cl)cccc1Nc1c(-c2ccncc2C#C[C@@]2(C)CCCN2C(=O)/C=C/CN(C)C)[nH]c2c1C(=O)NCC2	PIK3CA (Homo sapiens, UniProt P42336, E545A)	binding, competition with immobilised ligand	3 µM		97
CNC1C[S+]2CC[S+]3CC[S+](C1)[Ru-4]321([N]=C=S)[n]2c3ccc(OC)cc3c3c4c(c5cc(F)c[n+]1c5c32)C(=O)NC4=O (centres unmarked)	PIK3CA (Homo sapiens, UniProt P42336, I800L)	KinomeScan	0.1 µM	reference: untreated	100
CNC(=O)C1CCN(c2cc(C)c(F)cc2NC(=O)c2ccc(-c3cc(O)ccc3C)c(C)c2)CC1	PIK3CA Q546K	binding, competition with immobilised ligand	1 µM		100
Nc1ncc2c(n1)-c1c([nH]c3ccc(C4=CCOCC4)cc13)CCC2	PIK3CA (Homo sapiens, UniProt P42336, H1047L)	binding, competition with immobilised ligand	1 µM		85
